Results gathered from unrelated publications.
Lines come from different studies, so protocols differ. Numbers after ± are the reported error.
XIAP BIR1 domain: E3 ubiquitin-protein ligase XIAP, BIR1 domain (XIAP, Homo sapiens, UniProt P98170)
Chain of UniProt P98170 (whole entry, unmodified, looked up): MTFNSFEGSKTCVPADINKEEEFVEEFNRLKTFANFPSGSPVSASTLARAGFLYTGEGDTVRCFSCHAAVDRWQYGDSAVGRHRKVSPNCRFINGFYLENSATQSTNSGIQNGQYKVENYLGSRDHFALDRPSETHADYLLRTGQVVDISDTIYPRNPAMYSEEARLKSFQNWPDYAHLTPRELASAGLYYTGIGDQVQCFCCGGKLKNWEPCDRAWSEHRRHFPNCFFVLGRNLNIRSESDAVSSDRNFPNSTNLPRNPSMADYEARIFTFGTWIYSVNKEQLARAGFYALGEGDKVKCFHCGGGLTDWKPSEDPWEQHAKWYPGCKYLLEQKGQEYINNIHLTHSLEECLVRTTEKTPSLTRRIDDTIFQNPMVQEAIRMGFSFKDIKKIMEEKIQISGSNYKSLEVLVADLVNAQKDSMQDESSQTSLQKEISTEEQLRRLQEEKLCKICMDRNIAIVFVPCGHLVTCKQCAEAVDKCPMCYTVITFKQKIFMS
XIAP BIR3: E3 ubiquitin-protein ligase XIAP, BIR3 (XIAP, Homo sapiens, UniProt P98170)

For `CCOC(=S)Nc1cccc(C(=O)Nc2cc(C(=O)Nc3ccc(S(=O)(=O)O)c4cccc(S(=O)(=O)O)c34)ccc2C)c1`, the Kd was 6810 ± 2000 µM (XIAP BIR1 domain; microscale thermophoresis; 24 °C).
With `CN[C@@H](C)C(=O)N[C@@H](CCCCN)C(=O)N1CCC[C@H]1C(=O)N[C@@H](Cc1ccccc1)C(=O)O` the Ki was 11.7 µM (E3 ubiquitin-protein ligase XIAP, BIR2 (XIAP, Homo sapiens, UniProt P98170); ligand displacement, FP).
With `O=C(Nc1cccc(C(=O)Nc2ccc(S(=O)(=O)O)c3cc(S(=O)(=O)O)cc(S(=O)(=O)O)c23)c1)Nc1cccc(C(=O)Nc2ccc(S(=O)(=O)O)c3cc(S(=O)(=O)O)cc(S(=O)(=O)O)c23)c1` the Kd was 1140 ± 202 µM (E3 ubiquitin-protein ligase XIAP, BIR1 domain (XIAP, Homo sapiens, UniProt P98170, R62S); microscale thermophoresis).
`CN[C@@H](C)C(=O)N[C@H]1CN(C(=O)Cc2ccccc2)CC[C@H]2CC[C@@H](C(=O)NCc3ccccc3Br)N2C1=O` gave a Ki of 1.49 µM (XIAP BIR3; ligand displacement, FP).
The IC50 of `CC(C)[C@H](NC(=O)[C@H](C)NCC1CC1)C(=O)N1CCC[C@H]1C(=O)N[C@@H](Cc1ccccc1)C(N)=O` is reported as 1.5 µM (XIAP BIR3; ligand displacement).
`CN[C@@H](C)C(=O)N[C@H]1CN(C(=O)Cc2ccccc2)CC[C@H]2CC[C@@H](C(=O)NCc3cccc(F)c3)N2C1=O` has a Ki of 1 µM (XIAP BIR3; ligand displacement, FP).
`CC(C)[C@H](NC(=O)[C@H](C)N)C(=O)N1CCC[C@H]1C(=O)N(C)[C@@H](Cc1ccccc1)C(N)=O` has an IC50 of 0.38 µM (XIAP BIR3; ligand displacement).
With `N[C@H]1CCCCNC(=O)[C@H](Cc2ccccc2)NC(=O)[C@@H]2CCCN2C(=O)[C@@H](N)CCCCNC(=O)[C@H](Cc2ccccc2)NC(=O)[C@@H]2CCCN2C1=O` the Ki was 27 µM (XIAP BIR3; ligand displacement, FP).
`CC(C)[C@H](NC(=O)[C@H](C)NCC1CCCCC1)C(=O)N1CCC[C@H]1C(=O)N[C@@H](Cc1ccccc1)C(N)=O` has an IC50 of 2 µM (XIAP BIR3; ligand displacement).
With `CCc1ccc(CNC(=O)[C@@H]2CC[C@@H]3CCN(C(=O)Cc4ccccc4)C[C@H](NC(=O)[C@H](C)NC)C(=O)N32)cc1` the Ki was 2.32 µM (XIAP BIR3; ligand displacement, FP).
The Kd of `O=C(Nc1ccc(S(=O)(=O)O)c2cccc(S(=O)(=O)O)c12)c1cccc([N+](=O)[O-])c1` is reported as 8190 ± 1800 µM (XIAP BIR1 domain; microscale thermophoresis; 24 °C).
For `CN[C@@H](C)C(=O)N[C@H]1CN(C(=O)Cc2ccccc2)CC[C@H]2CC[C@@H](C(=O)NCc3ccc(C(C)(C)C)cc3)N2C1=O`, the Ki was 185 µM (XIAP BIR3; ligand displacement, FP).
The Kd of `Cc1ccc(C(=O)Nc2ccc(S(=O)(=O)O)c3cccc(S(=O)(=O)O)c23)cc1NC(=O)c1cccc([N+](=O)[O-])c1` is reported as 537 ± 60 µM (E3 ubiquitin-protein ligase XIAP, BIR1 domain (XIAP, Homo sapiens, UniProt P98170, D71A); microscale thermophoresis).
